Experimental data from different studies.
Compare with care: the assays were run in different laboratories. Numbers after ± are the reported error.
Organism: Influenza A virus

`NC12CC3CC(CC(C3)C1)C2` gave an EC50 of 445 µM (viral cytopathic effect, MTS; MDCK, H1N1).
The EC99 of `C1CC2C1C1CCC2C2CNCC12` (stereo not shown) is reported as under 0.08 µM (viral replication; MDCK, A/HK/7/87 (H3N2); 24 h).
The EC50 of `CC(N)C12CC3CC(CC(C3)C1)C2` (stereo not shown) is reported as 13.8 µM (viral cytopathic effect, MTS; MDCK, H1N1).
For `NC(=O)c1ncn([C@@H]2O[C@H](CO)[C@@H](O)[C@H]2O)n1`, the IC50 was 28200 ± 4360 nM (viral replication; H1N1).
`CC(=O)N[C@H]1[C@H]([C@H](O)[C@H](O)CO)OC(SCCCCCCCCCCCCSC2(C(=O)O)C[C@H](NC(=N)N)[C@@H](NC(C)=O)[C@H]([C@H](O)[C@H](O)CO)O2)(C(=O)O)C[C@@H]1NC(=N)N` (stereo partly shown) gave an IC50 of 10 to 1000 nM (viral replication).
With `COc1ccc(NC(=S)NCc2cccc3cn[nH]c23)cc1OC` the EC50 was 0.247 µM (viral replication, inhibitor; H1N1 PR/8).
`CC(=O)N[C@H]1[C@H]([C@H](O)[C@H](O)CO)OC(SCCOCCOCCOCCOCCSC2(C(=O)O)C[C@H](NC(=N)N)[C@@H](NC(C)=O)[C@H]([C@H](O)[C@H](O)CO)O2)(C(=O)O)C[C@@H]1NC(=N)N` (stereo partly shown) has an IC50 of 10 to 1000 nM (H1N1 A/California/07/2009).
For `CCC(CC)O[C@@H]1C=C(C(=O)O)C[C@H](N)[C@H]1NC(C)=O`, the EC50 was 2 µM (viral cytopathic effect, visual CPE score; MDCK, H1N1).
With `CC(=O)N[C@H]1[C@H]([C@H](O)[C@H](O)CO)OC(SCCCCCCSC2(C(=O)O)C[C@H](NC(=N)N)[C@@H](NC(C)=O)[C@H]([C@H](O)[C@H](O)CO)O2)(C(=O)O)C[C@@H]1NC(=N)N` (stereo partly shown) the IC50 was 10 to 1000 nM (H1N1 A/California/07/2009).
With `NC12CC3CC(CC(C3)C1)C2` the EC50 was 14.4 ± 0.55 µM (viral replication, MTS; MDCK, H3N2).

Excerpt of the above:
`CC(=O)N[C@H]1[C@H]([C@H](O)[C@H](O)CO)OC(SCCCCCCCCCCCCSC2(C(=O)O)C[C@H](NC(=N)N)[C@@H](NC(C)=O)[C@H]([C@H](O)[C@H](O)CO)O2)(C(=O)O)C[C@@H]1NC(=N)N` (stereo partly shown) gave an IC50 of 10 to 1000 nM (viral replication).
The EC99 of `C1CC2C1C1CCC2C2CNCC12` (stereo not shown) is reported as under 0.08 µM (viral replication; MDCK, A/HK/7/87 (H3N2); 24 h).
